# Assay results from different studies.
# Protocols differ between the studies behind these lines. ± marks the error that the study gave.
Molecule,target,assay,test system,conditions,how to read,endpoint,result
O=C([O-])c1ccc[n+]([C@@H]2O[C@H](COP(=O)(O)O)[C@@H](O)[C@H]2O)c1,"nicotinamide mononucleotide adenylyltransferase R133A, His-tagged",substrate,,,,kcat,0.567 s⁻¹
O=[As]c1ccccc1 (stereo not drawn),rat Y2 receptor,,rat brain particulates,30 µM,reference: control,Y2 receptor density change,≤ 15%
carbon monoxide,Clostridium botulinum H-NOX Y139F,"dissociation, NO displacement",,,,koff,1.1 s⁻¹
gymnodimine A,nicotinic acetylcholine receptor (Torpedo marmorata),binding,,"Pecten maximus extract 25 mg/mL, with: biotin-α-bungarotoxin",,IC50,70.4 ± 13.2 nM
CCOC(=O)OC(=O)OCC,TTX-sensitive Na channel (rat brain),,rat brain membranes,"10 mM, 1 h, pH 5.5 or 7.5, room temperature",,specific [3H]saxitoxin binding abolished,> 50%
pinnatoxin A,nicotinic acetylcholine receptor (Torpedo marmorata),binding,,with: biotin-α-bungarotoxin 80 nM,,Ki,23 ± 12.2 nM
nitric oxide,Clostridium botulinum H-NOX Y139F,"dissociation, sequential stopped-flow",six-coordinate heme-His complex,,,koff,0.005 s⁻¹
pinnatoxin G,nicotinic acetylcholine receptor (Torpedo marmorata),binding,,"Pecten maximus extract 25 mg/mL, with: biotin-α-bungarotoxin",,IC50,24.7 ± 11.4 nM
CCN1C(=O)C=CC1=O,TTX-resistant Na channel (sheep heart),,,"33 mM, room temperature",,half-time of inhibition,~25 min

# A few entries again:
Molecule,target,assay,test system,conditions,how to read,endpoint,result
carbon monoxide,Clostridium botulinum H-NOX Y139F,"dissociation, NO displacement",,,,koff,1.1 s⁻¹
